Results of several laboratories.
Numbered parts are unrelated; each lists some results of a single study.
Chain of UniProt Q8NG66 (whole entry, looked up): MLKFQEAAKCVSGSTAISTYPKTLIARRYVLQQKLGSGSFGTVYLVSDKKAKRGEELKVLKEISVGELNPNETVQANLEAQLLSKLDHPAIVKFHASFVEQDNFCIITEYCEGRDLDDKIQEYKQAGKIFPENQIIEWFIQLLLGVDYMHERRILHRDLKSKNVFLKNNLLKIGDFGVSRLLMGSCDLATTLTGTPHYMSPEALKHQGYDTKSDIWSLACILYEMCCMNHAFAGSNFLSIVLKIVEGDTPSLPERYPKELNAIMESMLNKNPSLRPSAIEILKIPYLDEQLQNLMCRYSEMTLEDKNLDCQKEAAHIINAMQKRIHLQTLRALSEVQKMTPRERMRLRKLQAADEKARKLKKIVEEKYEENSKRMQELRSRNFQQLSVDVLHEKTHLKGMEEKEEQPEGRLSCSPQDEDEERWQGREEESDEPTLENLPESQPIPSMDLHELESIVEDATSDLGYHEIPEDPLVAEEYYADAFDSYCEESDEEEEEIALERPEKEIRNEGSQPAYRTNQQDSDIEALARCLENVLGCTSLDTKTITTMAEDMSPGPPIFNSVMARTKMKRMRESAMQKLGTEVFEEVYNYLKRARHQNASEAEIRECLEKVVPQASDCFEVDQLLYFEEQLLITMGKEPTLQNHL
Chain of UniProt Q8WTQ7 (whole entry, looked up): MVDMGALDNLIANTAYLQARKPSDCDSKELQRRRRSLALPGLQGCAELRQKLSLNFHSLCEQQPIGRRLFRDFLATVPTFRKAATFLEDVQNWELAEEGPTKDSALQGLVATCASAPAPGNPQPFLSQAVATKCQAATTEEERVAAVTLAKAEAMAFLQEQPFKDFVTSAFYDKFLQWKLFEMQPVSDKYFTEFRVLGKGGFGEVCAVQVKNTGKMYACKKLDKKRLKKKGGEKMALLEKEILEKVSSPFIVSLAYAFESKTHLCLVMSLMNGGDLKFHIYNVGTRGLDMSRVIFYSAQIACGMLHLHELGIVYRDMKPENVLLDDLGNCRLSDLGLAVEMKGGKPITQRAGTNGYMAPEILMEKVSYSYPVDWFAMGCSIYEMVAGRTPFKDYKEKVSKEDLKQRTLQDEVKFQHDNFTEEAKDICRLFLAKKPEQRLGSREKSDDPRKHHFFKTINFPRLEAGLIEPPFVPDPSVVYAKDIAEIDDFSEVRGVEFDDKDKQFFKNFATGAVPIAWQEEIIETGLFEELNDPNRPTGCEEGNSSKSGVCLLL
Chain of UniProt Q9UKE5 (whole entry, looked up): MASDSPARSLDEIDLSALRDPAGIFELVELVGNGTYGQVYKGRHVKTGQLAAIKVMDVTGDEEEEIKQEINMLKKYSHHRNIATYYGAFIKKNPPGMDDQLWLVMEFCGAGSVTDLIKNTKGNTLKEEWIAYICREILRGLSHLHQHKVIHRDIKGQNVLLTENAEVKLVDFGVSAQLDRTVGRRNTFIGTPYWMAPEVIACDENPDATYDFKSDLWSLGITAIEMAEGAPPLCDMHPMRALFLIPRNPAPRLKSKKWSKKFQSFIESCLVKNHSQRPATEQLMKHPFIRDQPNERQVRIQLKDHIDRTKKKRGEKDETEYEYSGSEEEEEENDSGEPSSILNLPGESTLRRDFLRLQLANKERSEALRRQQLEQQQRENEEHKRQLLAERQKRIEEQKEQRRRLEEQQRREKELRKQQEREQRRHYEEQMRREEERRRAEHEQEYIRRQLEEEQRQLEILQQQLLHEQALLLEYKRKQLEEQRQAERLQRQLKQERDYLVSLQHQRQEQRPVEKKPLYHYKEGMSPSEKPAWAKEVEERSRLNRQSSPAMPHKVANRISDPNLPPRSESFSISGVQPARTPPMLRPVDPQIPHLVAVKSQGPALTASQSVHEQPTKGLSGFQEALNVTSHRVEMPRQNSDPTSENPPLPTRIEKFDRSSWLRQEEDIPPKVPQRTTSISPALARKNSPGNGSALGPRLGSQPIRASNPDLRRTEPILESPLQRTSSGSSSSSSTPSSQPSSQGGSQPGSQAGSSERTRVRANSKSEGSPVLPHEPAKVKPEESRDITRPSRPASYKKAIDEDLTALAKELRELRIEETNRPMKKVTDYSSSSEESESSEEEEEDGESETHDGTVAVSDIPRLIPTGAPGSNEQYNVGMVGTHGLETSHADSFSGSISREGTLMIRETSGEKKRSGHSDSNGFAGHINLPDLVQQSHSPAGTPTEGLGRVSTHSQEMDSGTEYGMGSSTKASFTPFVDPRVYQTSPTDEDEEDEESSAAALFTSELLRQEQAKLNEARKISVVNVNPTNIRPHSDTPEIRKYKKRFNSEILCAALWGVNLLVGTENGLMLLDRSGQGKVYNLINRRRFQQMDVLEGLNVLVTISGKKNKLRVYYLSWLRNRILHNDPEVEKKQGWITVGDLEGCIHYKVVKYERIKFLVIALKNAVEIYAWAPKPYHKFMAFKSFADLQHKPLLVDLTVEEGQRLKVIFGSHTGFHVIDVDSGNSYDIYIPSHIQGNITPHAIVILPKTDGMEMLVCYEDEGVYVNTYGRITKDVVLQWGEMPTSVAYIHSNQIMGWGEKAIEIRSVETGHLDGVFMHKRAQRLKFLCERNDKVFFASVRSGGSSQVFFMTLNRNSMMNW
Chain of UniProt Q00532 (whole entry, looked up): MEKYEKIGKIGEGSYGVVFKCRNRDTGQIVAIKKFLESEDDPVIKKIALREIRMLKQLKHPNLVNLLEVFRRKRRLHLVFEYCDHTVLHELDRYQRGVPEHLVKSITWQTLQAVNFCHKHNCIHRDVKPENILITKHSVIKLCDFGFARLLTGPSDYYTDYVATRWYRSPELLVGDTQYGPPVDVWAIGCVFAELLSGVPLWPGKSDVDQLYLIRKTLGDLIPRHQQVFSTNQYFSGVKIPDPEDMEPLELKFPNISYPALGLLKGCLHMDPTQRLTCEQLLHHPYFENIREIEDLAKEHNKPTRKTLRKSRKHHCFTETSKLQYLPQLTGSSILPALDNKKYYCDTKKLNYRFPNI
Chain of UniProt P10721 (whole entry, looked up): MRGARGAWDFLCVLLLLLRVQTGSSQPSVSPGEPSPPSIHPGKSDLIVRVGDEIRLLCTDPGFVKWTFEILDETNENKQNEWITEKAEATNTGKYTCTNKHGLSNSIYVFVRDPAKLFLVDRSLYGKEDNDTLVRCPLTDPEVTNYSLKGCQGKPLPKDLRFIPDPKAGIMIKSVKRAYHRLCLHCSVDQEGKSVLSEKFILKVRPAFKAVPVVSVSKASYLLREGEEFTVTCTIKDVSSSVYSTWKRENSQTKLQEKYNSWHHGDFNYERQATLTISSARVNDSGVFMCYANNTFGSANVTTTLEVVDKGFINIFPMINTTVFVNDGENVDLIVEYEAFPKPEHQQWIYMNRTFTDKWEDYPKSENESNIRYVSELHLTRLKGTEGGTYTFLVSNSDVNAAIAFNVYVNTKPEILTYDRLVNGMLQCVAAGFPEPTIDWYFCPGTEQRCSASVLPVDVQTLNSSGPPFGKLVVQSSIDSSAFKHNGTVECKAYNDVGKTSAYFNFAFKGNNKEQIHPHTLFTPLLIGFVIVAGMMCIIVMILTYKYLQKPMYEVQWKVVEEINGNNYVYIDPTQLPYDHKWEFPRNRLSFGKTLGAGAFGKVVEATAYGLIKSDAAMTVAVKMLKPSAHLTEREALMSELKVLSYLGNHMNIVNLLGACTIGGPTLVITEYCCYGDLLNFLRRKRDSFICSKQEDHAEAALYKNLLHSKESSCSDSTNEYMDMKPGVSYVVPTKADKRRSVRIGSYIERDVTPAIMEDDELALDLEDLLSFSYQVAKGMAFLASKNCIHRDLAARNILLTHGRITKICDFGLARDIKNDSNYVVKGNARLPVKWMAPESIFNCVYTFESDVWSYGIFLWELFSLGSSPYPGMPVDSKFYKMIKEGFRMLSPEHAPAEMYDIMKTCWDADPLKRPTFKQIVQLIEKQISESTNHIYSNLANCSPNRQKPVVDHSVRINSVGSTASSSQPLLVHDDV
Chain of UniProt Q86UX6 (whole entry, looked up): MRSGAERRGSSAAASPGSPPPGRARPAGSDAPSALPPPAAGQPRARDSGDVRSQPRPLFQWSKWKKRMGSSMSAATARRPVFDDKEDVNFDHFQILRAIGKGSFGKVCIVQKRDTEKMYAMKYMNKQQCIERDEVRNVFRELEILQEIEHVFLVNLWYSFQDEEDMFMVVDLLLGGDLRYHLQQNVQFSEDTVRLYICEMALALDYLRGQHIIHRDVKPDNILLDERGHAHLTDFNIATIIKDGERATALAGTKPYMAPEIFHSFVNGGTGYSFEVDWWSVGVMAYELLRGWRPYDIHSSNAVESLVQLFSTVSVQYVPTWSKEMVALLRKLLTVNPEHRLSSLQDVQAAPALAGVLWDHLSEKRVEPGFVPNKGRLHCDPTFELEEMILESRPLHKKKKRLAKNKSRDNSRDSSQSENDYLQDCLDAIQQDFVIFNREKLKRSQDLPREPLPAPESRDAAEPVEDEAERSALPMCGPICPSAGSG

Block 1
Compound: CCCCN(CCCC)C(=O)CN1C[C@H](c2cc(OC)c3c(c2)OCO3)[C@@H](C(=O)O)[C@@H]1CC(C)(C)CCC
Technique: competition with immobilised ligand
Concentration: 1 µM
Endpoint: remaining binding
target = TXK (Homo sapiens, UniProt P42681); test = binding; result = 94.3%
target = TLK1 (Homo sapiens, UniProt Q9UKI8); test = cell-free assay; result = 100%
target = Tyrosine-protein kinase ABL1, phosphorylated (ABL1, Homo sapiens, UniProt P00519, F317L); test = cell-free assay; result = 96.7%
target = MAP4K5 (Homo sapiens, UniProt Q9Y4K4); test = cell-free assay; result = 100%
target = EGFR (Homo sapiens, UniProt P00533); test = cell-free assay; result = 95.1%
target = GRK7 (Homo sapiens, UniProt Q8WTQ7); test = cell-free assay; result = 98.3%
target = FGR (Homo sapiens, UniProt P09769); test = cell-free assay; result = 100%
target = PIP4K2B (Homo sapiens, UniProt P78356); test = cell-free assay; result = 100%
target = STK32C (Homo sapiens, UniProt Q86UX6); test = cell-free assay; result = 100%
target = CDKL1 (Homo sapiens, UniProt Q00532); test = cell-free assay; result = 100%
target = NEK11 (Homo sapiens, UniProt Q8NG66); test = cell-free assay; result = 85.8%
target = MAPK3 (Homo sapiens, UniProt P27361); test = cell-free assay; result = 100%
target = PIK3CA (Homo sapiens, UniProt P42336, E545A); test = cell-free assay; result = 89.8%
target = Mast/stem cell growth factor receptor Kit, autoinhibited (KIT, Homo sapiens, UniProt P10721); test = cell-free assay; result = 92.3%
target = WEE2 (Homo sapiens, UniProt P0C1S8); test = cell-free assay; result = 100%
target = TNIK (Homo sapiens, UniProt Q9UKE5); test = cell-free assay; result = 100%

Block 2
Species: mouse
Sample: microsomes or S9
Concentration: 2 µM
Time: 0.5 h
Endpoint: remaining compound
Compound = COc1cc(O)ccc1-c1nnc(C)n1-c1ccc(O)cc1; result = 62.8%
Compound = COc1ccc2c(n1)c1c(n2-c2ccc(N(C)C)cc2)CCC1; result = 0.668%
Compound = CC(C)COc1cc(=O)n2c(c1C(=O)N(C)CCc1ccccn1)CCCCC2; result = 19%
Compound = CN(C)C[C@@H]1CN(S(C)(=O)=O)C[C@H]1NC(=O)c1cccn1C; result = > 100%
Compound = COc1ccc(CC(=O)OCCn2cc(Br)ccc2=O)nc1; result = 2.24%
Compound = CC1CCCN(c2ncc(CN(Cc3ccccc3)C3CCN(C)CC3)cn2)C1 (centres unmarked); result = 2.24%

Block 3
Target: Hepatocyte nuclear factor 3-alpha (Foxa1, Mus musculus, UniProt P35582, residues 1-468, full length assumed)
Chain of UniProt P35582 (whole entry, looked up): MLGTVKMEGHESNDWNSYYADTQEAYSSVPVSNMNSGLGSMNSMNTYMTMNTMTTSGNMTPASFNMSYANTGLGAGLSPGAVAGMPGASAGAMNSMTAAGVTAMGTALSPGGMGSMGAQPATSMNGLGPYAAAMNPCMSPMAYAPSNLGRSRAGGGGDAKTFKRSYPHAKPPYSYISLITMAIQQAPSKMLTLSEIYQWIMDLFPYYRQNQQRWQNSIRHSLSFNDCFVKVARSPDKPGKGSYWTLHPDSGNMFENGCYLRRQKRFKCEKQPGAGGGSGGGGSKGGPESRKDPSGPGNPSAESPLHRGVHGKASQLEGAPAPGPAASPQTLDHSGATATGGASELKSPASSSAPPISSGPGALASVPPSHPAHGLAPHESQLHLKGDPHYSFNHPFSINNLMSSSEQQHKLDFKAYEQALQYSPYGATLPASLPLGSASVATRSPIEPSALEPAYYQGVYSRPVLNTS
Technique: EMSA with sequencing
Molecule type: double-stranded DNA, one strand shown
Sample: in vitro
Concentration: 10 and 20 nM
Notes: whole designed probe, mean of two concentrations, ends assumed
Relative to: negative control set to 0
Reading: higher = stronger binding
Endpoint: normalised bound fraction
Oligonucleotide = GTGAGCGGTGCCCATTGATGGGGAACTTTCCAGCCCTTAGTTTCTGGCATTTAACCTGACTCTGGTCCCTGAATGGCATGGGAGTGCTTTCAACCACAGGTTTCCACATTCATGCAAAAGCAAACAAGTGTGATCTACCTGACTCATTCAGAGATCTTTATTTGCTTTGTGTTTCCAATGGAGAAAGAGCTTGGGAAGGGAGGATCCTAATTGTCTAAATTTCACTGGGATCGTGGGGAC; result = 0.458 ratio
Oligonucleotide = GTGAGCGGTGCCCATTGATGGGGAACCCGTTAGCCATTTCTACAGTAAATGGTATCTGAAATTTTGTTATTTGAAAGAATTTTCTTGCCAAAACATGGAAATACGCAATATTTTGGCATATTGACTTTGTATACGGGAACTTATTTTTTTAATTTTTTTATTTTTTTTGAGGCAGAGTCTCACTCTGTTGCCCAGGCTGGAGTGCAGTGGCACAGTGTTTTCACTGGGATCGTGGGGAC; result = 0.292 ratio
Oligonucleotide = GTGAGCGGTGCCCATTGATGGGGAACTTAACTTAGGTAATTGAATATTTAATTTATTGATATTCTTAAAATGTTTCTTTCCAAACAGACTACTTTTTTTCAGTTTGATCTTCTTTCAAATGTAAACATGCAGTTTTTTTGTTTCTGAATTTTTATATTAATTGCAGTTTATTAATCAATATTGATAAGCATTTCATGGGTATCAAGACCATTTGATTTGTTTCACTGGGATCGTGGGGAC; result = 0.367 ratio
Oligonucleotide = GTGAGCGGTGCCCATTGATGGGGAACCCAGGTATTATCAGAGGGAGACAGGCAGGGAGCTCCCCAGTGAAGGCTCTAGAGCATCCCATAAAAGGATGAAGAGAGAGACAATCCACAAATGCAAATATCTATTCAATTTTCATTCTATTATAGTTATATTCATAGTTAATACTGTATGAAAATGTTTATTATAGAGTCACCTGCAAGAGCAAAAATAAGATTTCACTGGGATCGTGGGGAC; result = 0.167 ratio
Oligonucleotide = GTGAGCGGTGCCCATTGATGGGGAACATCTTCCCCCTCTTCCTTGCCCCACCAGCTCACCTACGGGGGTTATTTGCAGATAGGAAAATAAATAAAGCCGGCATTCGTTAACGCAGTTCTGGCGCAAACTGCTGTTTGCTCTGGATCTAACATGGTCCTTTGGCGACGCCAGGCTCCGGGAGAGCAAAGCACCGTGTCAGGGCCATGATCCGGGCTCGCCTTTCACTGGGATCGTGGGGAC; result = 0.344 ratio
Oligonucleotide = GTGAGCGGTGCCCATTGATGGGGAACTAGGCTTCTCGAGTAGAGAAACAAATGACAAATGGCTAAAATGGGTCACCACACACAAATCATGGTTTCATTATAGCATATTTCAAATGTTCTTATTTGCTCACAATTCTACTACTTCCACTAGACACTAATCTTTTCCAAACAAGGCCTTTTTTGTTACTAATGAATCCCTCTTCCTTTCCCCATTGATCACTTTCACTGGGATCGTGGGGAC; result = 0.106 ratio
Oligonucleotide = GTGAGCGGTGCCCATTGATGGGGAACTTAGGACCTCCCCTGCCACCATCTGGGCAGTGAAGCTCTGCCGGTGTGCTACTGGCAGTGTCCCGGGTTGTGTGTGGAGACACTGAGCACTGTAGATTACTTTAGAAGTTTATTGTCCCCAGAATGCTGCTCCCCCACAACTGTCTCCTGCAGCATGAAGGCTGACATTGTATCGTGGCTGTGTATCCACATGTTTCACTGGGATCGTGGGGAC; result = -0.0318 ratio
Oligonucleotide = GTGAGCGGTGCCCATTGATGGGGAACATCTTCCCCCTCTTCCTTGCCCCACCAGCTCACCTACGGGGGTTATTTGCACAAAGGAAAATAAATAAAGCCGGCATTCGTTAACCCTCTTCACGCGCATACTGCTGTTTGCTCTGGATGAATCATGGTCCTTTGGCGAGGCGTGGCTCCGGGAGAGCAAAGCACCGTGTCAGGGCCATGATCCGGGGTGGCCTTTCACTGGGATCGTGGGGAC; result = 0.377 ratio

Block 4
Target: TAR DNA-binding protein 43, full length, His tag (TARDBP, Homo sapiens, UniProt Q13148, residues 1-414)
Technique: RNA Bind-n-Seq
Molecule type: RNA
Sample: in vitro
Concentration: 20 nM
Notes: 6-mer, flanks averaged, single round
Added: 150 mM KCl
Relative to: input library
Reading: higher = stronger binding
Endpoint: 6-mer enrichment (R)
Oligonucleotide = ACUAUG; result = 0.665
Oligonucleotide = CCGAGU; result = 0.828
Oligonucleotide = CUACCC; result = 0.612
Oligonucleotide = CAGACC; result = 0.666
Oligonucleotide = CCCAGA; result = 0.674
Oligonucleotide = AGGCAG; result = 1.61
Oligonucleotide = AAAAAU; result = 0.859
Oligonucleotide = GGCGGU; result = 3.15

A few entries again (block 1):
target = NEK11 (Homo sapiens, UniProt Q8NG66); test = cell-free assay; result = 85.8%
target = MAPK3 (Homo sapiens, UniProt P27361); test = cell-free assay; result = 100%
target = PIK3CA (Homo sapiens, UniProt P42336, E545A); test = cell-free assay; result = 89.8%
target = Mast/stem cell growth factor receptor Kit, autoinhibited (KIT, Homo sapiens, UniProt P10721); test = cell-free assay; result = 92.3%
target = WEE2 (Homo sapiens, UniProt P0C1S8); test = cell-free assay; result = 100%
